Published values pooled from the literature.
Lines come from different studies, so protocols differ. ± marks the error that the study gave.

The AUC(0-t) of CO[C@H]1CC[C@H](N2C(=O)CNc3ncc(-c4ccc(C(C)(C)O)nc4)nc32)CC1 is reported as 1900 ng·h/mL (patients, plasma; oral, 60 mg, day 15, geometric mean).
COc1c(O)cc(C(=O)O)cc1O has an AUC(0-t) of 0.2 ± 0.07 µM·h (LC-MS/MS; male Ross broilers, serum; intravenous, 0.49 mg/kg gallic acid, 6 h).
Cc1ccc2c(c1)C(=O)[C@]1(O)CCN(c3ccc4nc(C)ccc4c3)C1=N2.Cl gave an AUC(0-t) of 1.44 ± 0.14 µM·h (plasma; oral, 10 mg/kg).
For Oc1ccc([C@@H](O)c2cc(-c3ncnc4cc(N5CCOCC5)ccc34)c(F)cc2Cl)nn1, the AUC(0-t) was 479 ng·h/mL (geometric mean; healthy volunteers, plasma; oral, 100 mg, fasted oral suspension).
C[C@@](Cc1ccc(O)c(O)c1)(NN)C(=O)O gave an AUC(0-t) of 0.35 µM·h (Parkinson's disease patients, plasma; oral, dose not given, 3 h, low levodopa AUC subgroup (11.5 µmol·h/L), median).
Cc1ccc(NC(=O)c2ccc(CN3CCN(C)CC3)cc2)cc1Nc1nccc(-c2cncc(-c3oncc3C)c2)n1 gave an AUC(0-t) of 45700 ± 25000 ng·h/mL (Parkinson's disease patients, plasma; oral, 100 mg/day, 7 days, steady state).
CS(=O)(=O)c1ccc([C@@H](O)[C@@H](CF)NC(=O)C(Cl)Cl)cc1 gave an AUC(0-t) of 41100 ± 2480 ng·h/mL (Arbor Acres chickens, plasma; oral, 20 mg/kg, together with: quercetin 60 mg/kg pretreatment).
For C[C@@H](N)C1CCN(S(=O)(=O)c2cccc3cnccc23)CC1, the AUC(0-t) was 13.8 ng·h/mL (healthy volunteers, fasted, plasma; oral, 75 mg).
OC[C@H]1O[C@@H](c2cc(Cc3ccc(C4CC4)cc3)c(Cl)c3c2CCO3)[C@H](O)[C@@H](O)[C@@H]1O gave an AUC(0-t) of 29.7 ± 9.23 ng·h/mL (healthy Korean adults, fasted, plasma; oral, 0.3 mg single dose, separate tablets, together with: co-administered drug 50 mg).
N[C@@H](Cc1ccc(O)c(O)c1)C(=O)O gave an AUC(0-t) of 12.8 µM·h (Parkinson's disease patients, plasma; oral, dose not given, 3 h, high carbidopa Cmax subgroup (≥9 µmol/L), median).
C=CC(=O)NC1CCN(c2ncc3ncnc(Nc4ccc(Oc5ccc6c(c5)ncn6C)c(C)c4)c3n2)CC1 gave an AUC(0-t) of 4.43 µM·h (healthy men; oral, 60 mg single dose, together with: carbamazepine).
For CC[C@H](Nc1ncnc2[nH]cnc12)c1oc2ccccc2c(=O)c1-c1cccc(F)c1, the AUC(0-t) was 11300 ± 2260 ng·h/mL (patients, Cohort-2, plasma; oral, 600 mg twice daily, together with: romidepsin 12 mg/m2).
COc1nnc2ccc(N3CCC(c4ccc(OCCN5CCN(C)C(=O)[C@H]5C)cc4)CC3)nn12 gave an AUC(0-t) of 0.273 µM·h (patients, plasma; oral, 15 mg twice daily, single dose, monotherapy).
For N[C@@H](CC(=O)N1CCc2c(nc(C(F)(F)F)nc2C(F)(F)F)C1)CN1CC(F)(F)CCC1=O, the AUC(0-t) was 1330 ± 220 ng·h/mL (healthy Korean adults, fasted, plasma; oral, 50 mg single dose, fixed-dose combination tablet, together with: enavogliflozin 0.3 mg).
The AUC(0-t) of CCCS(=O)(=O)N[C@H]1C[C@@H](N(C)c2ncnc3[nH]ccc23)C1 is reported as 1550 ng·h/mL (healthy volunteers, plasma, total; oral, 100 mg single dose, alone).
O=C(O)c1cc(O)c(O)c(O)c1 gave an AUC(0-t) of 2.25 ± 0.63 µM·h (chicken Ross broiler, male, serum; intravenous, 0.49 mg/kg, 6 h).
